# Earlier results that unrelated publications cite.
# Protocols differ between the studies behind these lines. Numbers after ± are the reported error.
# Slc6a3: Sodium-dependent dopamine transporter (Slc6a3, Rattus norvegicus, UniProt P23977)
# Sequence of UniProt P23977 (whole entry, looked up): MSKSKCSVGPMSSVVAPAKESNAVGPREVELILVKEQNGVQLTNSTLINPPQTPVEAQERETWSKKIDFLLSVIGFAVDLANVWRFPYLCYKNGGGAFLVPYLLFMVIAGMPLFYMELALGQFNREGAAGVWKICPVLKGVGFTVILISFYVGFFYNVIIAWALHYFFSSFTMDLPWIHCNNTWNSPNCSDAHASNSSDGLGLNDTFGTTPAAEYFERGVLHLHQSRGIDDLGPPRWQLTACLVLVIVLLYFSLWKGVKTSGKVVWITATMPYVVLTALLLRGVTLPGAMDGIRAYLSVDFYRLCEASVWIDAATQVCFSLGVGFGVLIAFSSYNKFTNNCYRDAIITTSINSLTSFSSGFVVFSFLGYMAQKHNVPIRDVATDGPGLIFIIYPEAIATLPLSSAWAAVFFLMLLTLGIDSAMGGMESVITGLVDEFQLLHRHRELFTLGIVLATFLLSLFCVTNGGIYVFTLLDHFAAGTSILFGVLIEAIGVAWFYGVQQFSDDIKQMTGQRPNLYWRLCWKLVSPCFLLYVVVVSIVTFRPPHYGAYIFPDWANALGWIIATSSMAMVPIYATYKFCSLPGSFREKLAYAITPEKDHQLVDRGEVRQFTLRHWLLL
# Slc6a4: Sodium-dependent serotonin transporter (Slc6a4, Rattus norvegicus, UniProt P31652)
# Sequence of UniProt P31652 (whole entry, looked up): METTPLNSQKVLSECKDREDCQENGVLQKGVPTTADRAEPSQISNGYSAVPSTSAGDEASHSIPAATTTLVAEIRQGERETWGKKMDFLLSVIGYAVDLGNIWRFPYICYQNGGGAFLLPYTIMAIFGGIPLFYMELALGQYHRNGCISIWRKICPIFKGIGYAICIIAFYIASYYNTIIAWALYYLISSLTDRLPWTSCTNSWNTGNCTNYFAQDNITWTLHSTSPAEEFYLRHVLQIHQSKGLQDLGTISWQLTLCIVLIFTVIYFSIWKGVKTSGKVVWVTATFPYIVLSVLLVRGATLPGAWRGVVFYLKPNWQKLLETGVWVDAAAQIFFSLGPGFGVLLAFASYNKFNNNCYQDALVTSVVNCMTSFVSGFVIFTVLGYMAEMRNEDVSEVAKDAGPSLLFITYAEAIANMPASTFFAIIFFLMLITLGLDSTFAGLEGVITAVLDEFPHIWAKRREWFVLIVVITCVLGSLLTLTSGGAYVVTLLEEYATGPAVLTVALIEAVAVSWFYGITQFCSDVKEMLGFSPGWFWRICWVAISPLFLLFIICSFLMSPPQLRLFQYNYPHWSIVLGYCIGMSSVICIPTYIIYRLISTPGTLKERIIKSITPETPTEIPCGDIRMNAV
# Sequence of UniProt P28223 (whole entry, looked up): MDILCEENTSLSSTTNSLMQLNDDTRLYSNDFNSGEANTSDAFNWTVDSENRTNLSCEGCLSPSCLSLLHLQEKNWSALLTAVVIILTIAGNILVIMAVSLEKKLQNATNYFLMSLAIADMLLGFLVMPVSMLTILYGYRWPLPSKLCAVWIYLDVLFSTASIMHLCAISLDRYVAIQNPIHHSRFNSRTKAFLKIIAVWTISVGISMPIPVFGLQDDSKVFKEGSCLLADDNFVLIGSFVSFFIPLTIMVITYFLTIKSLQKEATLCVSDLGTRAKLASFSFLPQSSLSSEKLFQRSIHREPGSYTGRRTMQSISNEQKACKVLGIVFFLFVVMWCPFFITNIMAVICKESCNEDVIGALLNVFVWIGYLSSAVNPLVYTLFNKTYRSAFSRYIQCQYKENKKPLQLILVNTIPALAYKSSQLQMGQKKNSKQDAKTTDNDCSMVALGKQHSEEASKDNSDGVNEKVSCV
# Sequence of UniProt P31645 (whole entry, looked up): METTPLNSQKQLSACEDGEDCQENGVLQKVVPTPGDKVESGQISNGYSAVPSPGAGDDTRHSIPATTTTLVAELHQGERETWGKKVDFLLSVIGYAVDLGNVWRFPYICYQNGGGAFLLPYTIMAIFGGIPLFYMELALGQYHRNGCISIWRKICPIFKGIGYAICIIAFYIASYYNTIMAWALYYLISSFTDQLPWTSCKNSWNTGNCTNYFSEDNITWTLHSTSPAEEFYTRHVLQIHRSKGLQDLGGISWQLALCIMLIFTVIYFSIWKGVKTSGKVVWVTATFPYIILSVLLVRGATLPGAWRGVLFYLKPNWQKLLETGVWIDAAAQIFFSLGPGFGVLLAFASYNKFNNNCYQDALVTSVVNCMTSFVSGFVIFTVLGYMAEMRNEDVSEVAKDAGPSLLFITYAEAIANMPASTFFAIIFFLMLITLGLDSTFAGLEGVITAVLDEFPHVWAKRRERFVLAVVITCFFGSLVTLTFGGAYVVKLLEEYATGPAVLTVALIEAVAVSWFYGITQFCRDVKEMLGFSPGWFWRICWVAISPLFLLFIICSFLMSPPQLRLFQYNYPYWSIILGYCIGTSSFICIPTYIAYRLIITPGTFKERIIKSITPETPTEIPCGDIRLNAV
# Sequence of UniProt Q9Y2T6 (whole entry, looked up): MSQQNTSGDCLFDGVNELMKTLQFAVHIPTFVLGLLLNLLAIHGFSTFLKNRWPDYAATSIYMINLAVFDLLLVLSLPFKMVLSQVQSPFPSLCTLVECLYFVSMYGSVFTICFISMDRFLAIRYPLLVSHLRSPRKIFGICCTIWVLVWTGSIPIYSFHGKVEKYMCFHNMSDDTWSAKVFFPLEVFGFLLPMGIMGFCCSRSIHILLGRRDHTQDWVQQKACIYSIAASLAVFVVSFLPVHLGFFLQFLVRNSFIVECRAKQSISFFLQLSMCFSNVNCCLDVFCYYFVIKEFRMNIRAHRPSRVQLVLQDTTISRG
# Sequence of UniProt P14867 (whole entry, unmodified, looked up): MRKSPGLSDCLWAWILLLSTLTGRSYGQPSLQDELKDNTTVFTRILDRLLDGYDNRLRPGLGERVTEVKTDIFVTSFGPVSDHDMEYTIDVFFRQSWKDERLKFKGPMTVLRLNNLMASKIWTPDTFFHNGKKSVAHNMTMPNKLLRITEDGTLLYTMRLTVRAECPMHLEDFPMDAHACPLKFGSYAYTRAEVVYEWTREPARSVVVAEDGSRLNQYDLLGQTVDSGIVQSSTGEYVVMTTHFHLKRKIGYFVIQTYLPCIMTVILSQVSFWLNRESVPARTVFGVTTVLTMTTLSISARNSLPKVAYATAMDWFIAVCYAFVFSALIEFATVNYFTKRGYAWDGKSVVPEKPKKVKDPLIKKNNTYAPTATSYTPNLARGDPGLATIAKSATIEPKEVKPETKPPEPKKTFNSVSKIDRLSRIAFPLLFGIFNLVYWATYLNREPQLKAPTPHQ
# Sequence of UniProt P28472 (whole entry, unmodified, looked up): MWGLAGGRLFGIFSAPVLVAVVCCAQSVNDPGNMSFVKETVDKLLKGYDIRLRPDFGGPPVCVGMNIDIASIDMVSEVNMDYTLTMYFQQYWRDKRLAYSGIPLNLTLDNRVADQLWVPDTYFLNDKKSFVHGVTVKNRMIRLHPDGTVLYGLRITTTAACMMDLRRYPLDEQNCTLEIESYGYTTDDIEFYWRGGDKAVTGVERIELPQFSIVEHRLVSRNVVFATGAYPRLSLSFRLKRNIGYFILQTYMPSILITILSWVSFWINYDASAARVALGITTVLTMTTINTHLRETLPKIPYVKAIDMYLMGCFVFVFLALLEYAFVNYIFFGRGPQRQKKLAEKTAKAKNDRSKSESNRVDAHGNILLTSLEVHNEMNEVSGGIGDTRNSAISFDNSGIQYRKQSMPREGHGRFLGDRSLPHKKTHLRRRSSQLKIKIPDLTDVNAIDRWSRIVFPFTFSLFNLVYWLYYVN
Structure (SMILES),target,read-out,action,cell line,sample,notes,EC50 [nM]
CNC(C)C(=O)c1ccc(C)cc1 (stereo not drawn),Slc6a3,substrate release,releaser,,rat brain synaptosomes,,49.1
CC(C)[C@H](NC(=O)c1nn(Cc2ccc(F)cc2)c2ccccc12)C(N)=O,CB1 receptor,GIRK channel current,agonist,,,,1.8
CNC(C)C(=O)c1ccc2c(c1)OCO2 (stereo not drawn),Slc6a3,,,,,,117 ± 12
COc1cc(CCNCc2ccccc2OC)c(OC)cc1I,"HTR2A (Homo sapiens, UniProt P28223)",,agonist,,,,240
CCCCC/C=C\C/C=C\C/C=C\C/C=C\CCCC(=O)OCCN,"GPR55 (Homo sapiens, UniProt Q9Y2T6)",,agonist,,,,3000
CCOC(=O)c1cncn1C1(c2ccccc2)CC1,"GABA-A receptor alpha-1/beta-3, with gamma-2 subunit (GABRA1/GABRB3, Homo sapiens, UniProt P14867+P28472, L291T)",ion current,agonist,,,50% of 100 µM GABA current,67600 ± 8100
CNC(C)C(=O)c1ccc(Cl)cc1 (stereo not drawn),Slc6a4,substrate release,releaser,,rat brain synaptosomes,,144
CNC(C)C(=O)c1ccc(C)cc1 (stereo not drawn),Slc6a4,,,,,,122 ± 10
CC[C@@H](c1cccc(O)c1)[C@@H](C)CN(C)C,mu-opioid receptor,functional activity,agonist,,,,670
CNC(C)C(=O)c1ccc(C(F)(F)F)cc1 (stereo not drawn),Slc6a3,substrate release,releaser,,rat brain synaptosomes,,2700
CNC(C)Cc1ccc2c(c1)OCO2 (stereo not drawn),"SLC6A4 (Homo sapiens, UniProt P31645)",[3H]serotonin release,releaser,HEK293 expressing transporter,,,1100 ± 290
CCCCCn1cc(C(=O)C2C(C)(C)C2(C)C)c2ccccc21,CB1 receptor,GIRK channel current,agonist,,,,417

# Some of these lines once more:
Structure (SMILES),target,read-out,action,cell line,sample,notes,EC50 [nM]
CNC(C)C(=O)c1ccc(C)cc1 (stereo not drawn),Slc6a4,,,,,,122 ± 10
